Measured values gathered from unrelated publications.
A part holds a random share of what one study measured. Substitutions count along the parent as printed.

Study 1 — technique: RNA Bind-n-Seq; form: RNA; sample: in vitro; tested at: 365 nM; baseline: no-protein control; direction: higher = stronger binding
Target: RNA binding protein fox-1 homolog 2, RRM domain, GST-SBP tag (RBFOX2, Homo sapiens, UniProt O43251-10, residues 100-194)
Setting: natural RNA segment, single round, ends assumed
All sequences stand within: GGGAGUUCUACAGUCCGACGAUC … UGGAAUUCUCGGGUGCCAA
Construct (chain): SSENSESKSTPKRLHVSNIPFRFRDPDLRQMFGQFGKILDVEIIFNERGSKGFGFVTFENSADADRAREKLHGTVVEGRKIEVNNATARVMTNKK
| Strand | RBNS enrichment (R) |
| --- | --- |
| GGGGACAGAAAAUACUCAUCUGUCCCCAGCACAGCCCCCACCCCACCCCCCAUAGCUGCUGAGACUGGCUCACAGCCCAAGGGGGCUGGGCUGGAGGGGAAGGCUGGGAC | 0.405 |
| AGGCUUUACAUAAGAAAUUAUUAAACAAAACAAGGGGGGCAAUAAAUGUAUAUAACAUUAAUAAUGUCGCGUAGGUGUAGGUUCCUGGAUGCAUUUGGAUGUACAGACUG | 2.62 |
| UUGUUGGUUGUUGUUGCAGAAGACUGAACUGUUUUGGAAUAUUUAACAAUUACAGAAACAGUCAAGUGUUUUCCAAUGUGGUUGUCCGGUUUCUAUGGCCUUGCUGUGUA | 0.361 |
| AAAACAAAUCUAAUGGUGCUUUUACCACAAUAUGUUAACUACAUUAAAUGCUAAUUAAUUAUUUUCUGUUAUCAAAGCACAUGACUAAAAUGAAAUCAUGGUAUCUGUUA | 0.452 |
| UUUAUAAUCAUAUCCAGUAAACGGCCUUGUGUCAUAGUAAGAUAAAAUGGUAUCUUACUGACUCUGUUUACUUAUGUGUACAAUUCUGGAAAAUAAAUUUUUUUAUUCUA | 0.589 |
| GAGUGGGUCCGUCGUCCCCAACACUCGUGCUCGCUCAGACACUUUGGCAGGAUGUCUGGGGCCUCACCAGCAGGAGCGCGUGCAAGCCGGGCAGGCGGUCCACCUAGACC | 0.609 |
| AUUAUUCUUAGAAUUGAGAUUGCUACACGGAGCAGUCCUUGACGAUCGUGUUUCUGACGUUUCUCUUCCUUGCCUGGACUGCCUUUGACAAGGCAGAAAUGAACAUGAAA | 0.593 |
| UCUCCCUGUGUUCUGGGCUGGGGCCACCUUUGUGCAGCUUCGAGGACAGGAAAGGCCCCAAUCUUGCCCACUGGCCGCUGAGCGCCCCCGAGCCCUGACUCCUGGACUCC | 0.343 |

Study 2 — target: CCNF, cyclin fold, Cln2 fusion (human); technique: yeast growth competition, sequencing; sample: yeast; setting: strong parent motif; baseline: not given; direction: higher = stronger binding
Parent: SLBP docking peptide (human); ARYKRKLLINDFG
| Change | normalised enrichment score |
| --- | --- |
| ARYKEKLLINDFG [R5E] | 1.29 |
| ARYKRKLLINDMG [F12M] | 1.54 |
| ARYKPKLLINDFG [R5P] | 0.734 |
| ARYKRKLLINDFA [G13A] | 1.51 |
| ARYKRKLLFNDFG [I9F] | 6.69 |
| ARYKRKLLINDFI [G13I] | 1.86 |
| ARYKRILLINDFG [K6I] | 1.49 |
| TRYKRKLLINDFG [A1T] | 2.63 |
| ARYKRDLLINDFG [K6D] | 0.323 |
| ARYKRKLLYNDFG [I9Y] | 3.68 |
| ARYKRKLLIEDFG [N10E] | 3.17 |
| ARYKRKLYINDFG [L8Y] | 1.47 |
| AFYKRKLLINDFG [R2F] | 1.37 |

Study 3 — technique: protein-binding microarray; form: double-stranded DNA, one strand shown; sample: in vitro; tested at: 940 nM top; setting: 60-bp whole probe; added: salmon DNA 0.4 mg/ml; baseline: random background probes; direction: higher = stronger binding; all sequences stand within: GCCTAGCAC … GTCTTGATTCGCTTGACGCTGCTG
Target: Interferon regulatory factor 5, full length, phosphomimetic (IRF5, Homo sapiens, UniProt Q13568-2, residues 1-514, S451D/S453D/S456D/S462D)
| Strand | fitted relative affinity |
| --- | --- |
| TTAGATATGAGTCTCGATTAGTGCTAG | 2.39 z-score |
| TTAGGTTTTCTTTTCCTTTAGTGCTAG | 1.09 z-score |
| TCACCTTCTACTCTCCTACTGTGCTAG | 1.29 z-score |
| TTTGGACTGGGTTTCGGTTAGTGCTAG | 7.2 z-score |
| GGCGAACTGGGGACTGGAGACGTGCTA | -0.151 z-score |
| TCAAGTCTGGGCTACAACACTGTGCTA | -0.604 z-score |
| GGACACGGATGCGGTCTGCCGTGCTAG | -0.384 z-score |
| GACGAACTTAGTATCGAGACGTGCTAG | 2.53 z-score |
| TCAACTAGGAGTTTTCAGACTGTGCTA | -0.37 z-score |
| GACGAACTGGGGACTGGAGAGGTGCTA | -0.101 z-score |
| TCAATTTTCAGTATTACACTGTGCTAG | 1.1 z-score |
| TTAGATATCAGTATCGGTTAGTGCTAG | 4.62 z-score |
| GACGCACTGGACTTTCGGGACGTGCTA | 0.408 z-score |
| TTAGGTTTCGGACTGGGTTTGTGCTAG | 7.82 z-score |
| TTAGATATCAGTCTCGATTCGTGCTAG | 2.71 z-score |

Other studies, line by line
| Molecule | target | assay | test system | conditions | scale | endpoint | result |
| --- | --- | --- | --- | --- | --- | --- | --- |
| PhoQ, residues 284 288 289 292 302 303 AGHLVA | PhoP, residues 12 14 15 18 19 NQFFI (Escherichia coli, UniProt P23836) | Sort-seq, measured: YFP reporter | E. coli | PhoQ-PhoP variant library, added: 10 µM Mg2+ | baseline: high Mg2+ state, higher = stronger signaling | fold induction | 6.79 |
